Measured values of several laboratories.
“And” joins repeats or separate records; there may be more than shown. ± gives the spread as reported. ≈ marks a conversion by molar mass, not a printed value.

CC(C)n1ncc2c(C(=O)NCC3(C)CNC3)cc(C3CC3)nc21  cell protection (coxsackievirus A6; CPE; RD; 0.5 µM): 96.3% and 99.1%
c1ccc(-c2c(-c3ccccn3)nc3n2CCC3)cc1  IC50 (Leishmania infantum; macrophages, MHOM/MA(BE)/67/ITMAP263, amastigote): 1.83 µM and 2.01 µM
O=[N+]([O-])c1ccc(N2CCN(S(=O)(=O)c3ccc(Cl)cc3)CC2)cc1NCc1cccnc1  larval mortality (Aedes aegypti; 100 µM, 24 h, first instar larvae): ~2%
COc1ccn2cc(-c3ccccn3)nc2c1  IC50 (Leishmania infantum; macrophages, MHOM/MA(BE)/67/ITMAP263, amastigote): 32.2 µM and 23.9 µM
O=C(O)c1cccc(Cn2ccc3ccc(-c4ccc5cc[nH]c5c4)cc32)c1  EC50 (human immunodeficiency virus 1; viral replication, MAGI cell; MAGI cells, Ba-L; CCR5-tropic): 50.1 µM
CNC(C)C1CCC(N)C(OC2C(N)CC(N)C(OC3OCC(C)(O)C(NC)C3O)C2O)O1 (stereo not drawn)  MIC (Pseudomonas aeruginosa; clinical isolate RKI-No_84/15): 4 µg/mL (≈ 8.38 µM)
O=C(O)CNC(=O)Cc1ccccc1  sarcomere length (ventricular cardiomyocytes, C57BL/6 mouse; dose not given, 0.252 s): 1.65 µm
O=C(O)c1cc(O)c2c(c1)C(=O)c1cccc(O[C@@H]3O[C@H](CO)[C@@H](O)[C@H](O)[C@H]3O)c1C2=O  cell viability (HK-2 co-cultured with HepaRG; MTT; 133.33 µM, 48 h; relative to: untreated control): 47.5 ± 2.72%
CC(C)C[C@H](NC(=O)C[C@H](O)[C@H](CC(C)C)NC(=O)[C@H](Cc1c[nH]cn1)NC(=O)CNC(=O)[C@@H](NC(=O)[C@H](C)NC(=O)[C@H](Cc1c[nH]c2ccccc12)NC(=O)[C@H](CCC(N)=O)NC(=O)[C@@H](Cc1ccccc1)NC(=O)COCCOCCNC(=O)CCC(C(=O)O)N1CCN(CC(=O)O)CCN(CC(=O)O)CCN(CC(=O)O)CC1)C(C)C)C(N)=O (stereo partly drawn) [lutetium-177 labelled]  tissue uptake (female BALB/c nu/nu mice, brain; intravenous, 100 pmol, 24 h, together with: PA 300 µg): 0.003 ± 0.001 %ID/g
CC(C)c1ccc(/C=C2\N=C(SCC(=O)O)N(c3ccccc3)C2=O)cc1  inhibition zone diameter (Bacillus cereus; ATCC 14579; concentration not given): 27 ± 0.2 mm
O=C1O[C@H]2[C@@H]3OC(=O)c4cc(O)c(O)c(O)c4-c4c(O)c(O)c5oc(=O)c6c(c(O)c(O)c7oc(=O)c4c5c76)-c4c(cc(O)c(O)c4O)C(=O)OC[C@H]3OC(O)[C@@H]2OC(=O)c2cc(O)c(O)c(O)c2-c2c1cc(O)c(O)c2O (mixture of isomers)  MBC/MIC ratio (Streptococcus gordonii; broth microdilution): 4
COc1ccc(S(=O)(=O)Nc2cc(OC)c(NC(=O)CCCl)cc2OC)cc1  selectivity index (Leishmania infantum; intracellular amastigote growth; U-937 macrophages and HeLa; relative to: IC50 HeLa over IC50 amastigotes): 0.27
CCCCCCCCCC(=O)N[C@@H](Cc1c[nH]c2ccccc12)C(=O)N[C@H](CC(N)=O)C(=O)N[C@@H](CC(=O)O)C(=O)N[C@@H]1C(=O)NCC(=O)N[C@@H](CCCN)C(=O)N[C@@H](CC(=O)O)C(=O)N[C@H](C)C(=O)N[C@@H](CC(=O)O)C(=O)NCC(=O)N[C@H](CO)C(=O)N[C@@H]([C@H](C)CC(=O)O)C(=O)N[C@@H](CC(=O)c2ccccc2N)C(=O)O[C@@H]1C  MIC (Staphylococcus aureus; broth microdilution; MRSA USA300, Mueller-Hinton broth, Mg2+ 10 mg/L; 16 h, 37 °C, together with: Ca2+ 0 mM): > 128 µg/mL
Cn1cnc(-c2nc3ccccn3c2Nc2ccc(F)cc2)c1  IC50 (Leishmania infantum; macrophages, MHOM/MA(BE)/67/ITMAP263, amastigote): 6.82 µM and 9.51 µM
COC(=O)C1CCN(C(=O)c2ccc(N(CCO)Cc3cnc4nc(N)nc(N)c4n3)cc2)CC1  inhibition (Leishmania infantum; amastigote growth; THP-1-derived macrophages; 10 µM, 72 h): 10 ± 2%
CN(c1ccc(F)cc1)c1c(-c2ccc(F)cn2)nc2ccccn12  selectivity index (Leishmania infantum; MHOM/MA(BE)/67/ITMAP263; 120 h; relative to: CC50 macrophages over EC50 amastigotes): 50.1
Cn1cc(-c2ccc(-c3cncc(Cl)c3N3CCC4(CCNC4=O)CC3)cc2)cn1  log2 fold change (COLO 205; gene expression, microarray, refers to: PRDM1 mRNA; concentration not given, 2 h; relative to: untreated cells): 3.57
O=C1C[C@@H](c2ccc(O)cc2)Oc2cc(O)cc(O)c21  IC50 (human immunodeficiency virus 1; viral replication; TZM-bl cells, NL4-3 (CXCR4-tropic); 48 h): > 100 µM
O=C1c2cccc(O)c2C(=O)c2c(O)cc(CO)cc21  viability (HK-2 co-cultured with HepaRG; MTT; 33.33 µM, 48 h; relative to: untreated control): 80.5 ± 6.84%
O=C1C(Cl)=C(n2ccnc2)C(=O)c2ccccc21  zone of inhibition (Alternaria alternata; ITCC 4522; 10 µg/mL): 12 mm
c1ccc(-c2nc3n(c2-c2ccncc2)CCC3)nc1  IC50 (Leishmania infantum; intramacrophage amastigotes, MHOM/MA(BE)/67/ITMAP263): > 64 µM
Nc1nc(-c2ccccc2)nc2[nH]nc(Nc3ccc(C(F)(F)F)cc3)c12  clinical score (coxsackievirus B3; 31-1-93, NMRI mice, CVB3 chronic myocarditis; oral, 100 mg/kg twice daily, day 4, dosed days 3 to 10, score scale 0 to 7; direction not given): 0.8
N#Cc1cccc(-c2c(-c3ccccn3)nc3n2CCC3)c1  IC50 (Leishmania infantum; macrophages, MHOM/MA(BE)/67/ITMAP263, amastigote): 9.51 µM and 12.7 µM
CC(=O)NC[C@H]1CN(c2ccc(N3CCOCC3)c(F)c2)C(=O)O1  MIC50 (Staphylococcus epidermidis; methicillin-resistant, 10 isolates; pH 7.0): 1 µg/mL (≈ 2.96 µM)

Excerpt of the above:
Nc1nc(-c2ccccc2)nc2[nH]nc(Nc3ccc(C(F)(F)F)cc3)c12  clinical score (coxsackievirus B3; 31-1-93, NMRI mice, CVB3 chronic myocarditis; oral, 100 mg/kg twice daily, day 4, dosed days 3 to 10, score scale 0 to 7; direction not given): 0.8
CC(C)c1ccc(/C=C2\N=C(SCC(=O)O)N(c3ccccc3)C2=O)cc1  inhibition zone diameter (Bacillus cereus; ATCC 14579; concentration not given): 27 ± 0.2 mm
O=C(O)c1cccc(Cn2ccc3ccc(-c4ccc5cc[nH]c5c4)cc32)c1  EC50 (human immunodeficiency virus 1; viral replication, MAGI cell; MAGI cells, Ba-L; CCR5-tropic): 50.1 µM
